Assay results gathered from unrelated publications.
Lines come from different studies, so protocols differ. Numbers after ± are the reported error. Converted amounts (≈) assume the structure as drawn.

The chains behind the UniProt entries cited, without tags or fusion partners.
UniProt P41145, whole entry: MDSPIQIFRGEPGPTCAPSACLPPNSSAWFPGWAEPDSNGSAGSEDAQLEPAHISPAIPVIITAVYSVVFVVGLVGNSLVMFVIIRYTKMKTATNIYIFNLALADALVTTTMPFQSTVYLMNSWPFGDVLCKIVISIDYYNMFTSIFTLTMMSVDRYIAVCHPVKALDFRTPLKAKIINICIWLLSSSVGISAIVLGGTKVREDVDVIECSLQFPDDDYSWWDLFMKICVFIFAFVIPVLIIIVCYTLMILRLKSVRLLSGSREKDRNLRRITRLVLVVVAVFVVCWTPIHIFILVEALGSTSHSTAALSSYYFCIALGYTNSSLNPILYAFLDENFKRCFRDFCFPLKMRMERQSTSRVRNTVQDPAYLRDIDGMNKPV
UniProt P41143, whole entry: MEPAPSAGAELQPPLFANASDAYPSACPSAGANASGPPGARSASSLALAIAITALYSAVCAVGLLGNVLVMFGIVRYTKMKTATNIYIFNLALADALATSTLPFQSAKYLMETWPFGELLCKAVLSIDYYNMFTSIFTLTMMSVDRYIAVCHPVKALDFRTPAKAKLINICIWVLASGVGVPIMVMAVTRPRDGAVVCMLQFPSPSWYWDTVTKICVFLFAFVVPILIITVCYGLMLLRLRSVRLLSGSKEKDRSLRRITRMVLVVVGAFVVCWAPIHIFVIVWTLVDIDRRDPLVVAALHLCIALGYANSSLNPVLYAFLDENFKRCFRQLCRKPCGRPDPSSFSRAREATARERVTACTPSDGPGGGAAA
UniProt Q01959, whole entry: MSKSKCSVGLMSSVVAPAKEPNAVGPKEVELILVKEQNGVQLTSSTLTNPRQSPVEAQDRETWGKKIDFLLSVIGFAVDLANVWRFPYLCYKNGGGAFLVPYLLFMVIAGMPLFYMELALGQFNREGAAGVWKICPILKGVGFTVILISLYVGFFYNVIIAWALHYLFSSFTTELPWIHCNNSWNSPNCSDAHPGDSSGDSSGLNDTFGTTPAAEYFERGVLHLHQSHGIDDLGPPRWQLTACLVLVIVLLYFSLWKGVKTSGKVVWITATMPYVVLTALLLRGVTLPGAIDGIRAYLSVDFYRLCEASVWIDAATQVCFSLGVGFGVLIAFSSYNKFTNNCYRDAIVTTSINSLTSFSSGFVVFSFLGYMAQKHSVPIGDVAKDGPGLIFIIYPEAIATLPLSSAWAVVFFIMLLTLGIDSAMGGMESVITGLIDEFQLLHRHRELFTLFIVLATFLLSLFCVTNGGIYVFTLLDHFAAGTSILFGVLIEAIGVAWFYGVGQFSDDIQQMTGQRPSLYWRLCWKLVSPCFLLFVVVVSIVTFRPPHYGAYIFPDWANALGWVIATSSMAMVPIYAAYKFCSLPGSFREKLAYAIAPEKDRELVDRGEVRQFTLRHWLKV
UniProt Q00961, whole entry, looked up: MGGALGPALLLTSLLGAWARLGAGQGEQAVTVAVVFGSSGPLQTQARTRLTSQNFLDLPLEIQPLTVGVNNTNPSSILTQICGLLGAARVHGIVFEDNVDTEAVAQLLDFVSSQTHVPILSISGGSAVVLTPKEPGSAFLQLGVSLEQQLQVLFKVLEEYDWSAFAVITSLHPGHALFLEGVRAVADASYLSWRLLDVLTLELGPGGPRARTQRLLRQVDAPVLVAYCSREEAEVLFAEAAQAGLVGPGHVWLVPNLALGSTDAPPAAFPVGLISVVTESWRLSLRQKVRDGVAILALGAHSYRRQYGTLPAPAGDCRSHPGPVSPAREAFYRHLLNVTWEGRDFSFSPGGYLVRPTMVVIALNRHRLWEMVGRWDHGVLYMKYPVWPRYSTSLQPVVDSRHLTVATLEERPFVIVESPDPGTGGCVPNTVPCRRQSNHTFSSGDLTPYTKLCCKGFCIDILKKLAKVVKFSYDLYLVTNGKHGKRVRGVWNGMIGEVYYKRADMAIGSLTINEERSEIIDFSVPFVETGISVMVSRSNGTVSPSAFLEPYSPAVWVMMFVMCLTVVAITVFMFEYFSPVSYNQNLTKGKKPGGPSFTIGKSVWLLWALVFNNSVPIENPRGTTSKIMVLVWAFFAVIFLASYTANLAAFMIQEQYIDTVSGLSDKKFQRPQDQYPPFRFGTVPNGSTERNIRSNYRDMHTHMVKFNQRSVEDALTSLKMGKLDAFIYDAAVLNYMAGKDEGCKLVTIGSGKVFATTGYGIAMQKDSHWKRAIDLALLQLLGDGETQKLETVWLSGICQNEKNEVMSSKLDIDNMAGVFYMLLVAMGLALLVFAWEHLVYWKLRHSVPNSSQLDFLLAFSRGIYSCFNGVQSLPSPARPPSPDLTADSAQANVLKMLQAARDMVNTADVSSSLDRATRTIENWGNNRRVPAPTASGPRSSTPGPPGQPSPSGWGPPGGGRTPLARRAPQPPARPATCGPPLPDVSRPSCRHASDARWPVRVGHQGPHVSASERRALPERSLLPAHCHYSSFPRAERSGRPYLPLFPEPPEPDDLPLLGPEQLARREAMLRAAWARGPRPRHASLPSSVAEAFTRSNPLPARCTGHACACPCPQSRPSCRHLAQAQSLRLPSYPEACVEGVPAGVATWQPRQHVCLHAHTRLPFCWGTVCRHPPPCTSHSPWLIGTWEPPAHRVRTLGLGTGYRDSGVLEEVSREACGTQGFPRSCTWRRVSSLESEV

Compound = CCOC(=O)OCOc1c(-c2ccc(Oc3ccc(OC(F)(F)F)cc3)cc2)c(C)nc2cc(OC)c(Cl)cc12; tested on = Plasmodium yoelii; test system = mouse; conditions = oral, 30 days without recrudescence, PEG-400 vehicle; measurement = single-dose curative dose; value = 3 mg/kg/day
Compound = CCCCCCCCCCCCCC(=S)NCCCC[C@H](NC(=O)OCc1ccccc1)C(=O)Nc1cccc(O)c1; tested on = MDA-MB-231; test = cell growth; measurement = GI50; value = 6 ± 2 µM
Compound = CN(C(=O)Cc1ccc(Cl)c(Cl)c1)[C@H](CN1CCCC1)c1ccccc1; tested on = Kappa-type opioid receptor (OPRK1, Homo sapiens, UniProt P41145); test = agonist; conditions = human receptor; how to read = reference: larger over smaller RAi, vs dynorphin A; measurement = bias factor; value = 5.7
Compound = CCCCOc1ccc2nc3ccc(=O)cc-3oc2c1; tested on = Mycobacterium tuberculosis; test system = mc2 6206 bedaquiline-resistant MmpL5 regulator mutant; conditions = 7 days; measurement = MIC90; value = 7 µM (≈ 1.89 µg/mL)
Compound = CCc1nc(N)nc(N)c1C#CCc1cc(OC)cc(-c2ccc(C(=O)O)cc2)c1; tested on = Staphylococcus aureus; test system = MSSA isolate UCH 1; measurement = MIC; value = 10 µg/mL (≈ 24.8 µM)
Compound = Cc1ccc(S(=O)(=O)N(C)CC(=O)N(Cc2ccc(C3CCCCC3)cc2)c2ccc(C(=O)O)c(O)c2)cc1; tested on = NIH3T3/v-Src, PANC-1, MDA-MB-231; test = immunoblotting, measured: phospho-Erk1/2; conditions = concentration not given, 24 h; measurement = phosphorylation level; value = no effect
Compound = O=c1ccc2nc3ccc(OCCO)cc3oc-2c1; tested on = Mycobacterium tuberculosis; test system = mc2 6206 clofazimine-resistant fbiC mutant; conditions = 7 days; measurement = MIC90; value = > 256 µM
Compound = CCC(C)C1NC(=O)/C(=C(/C)O)C1=O (stereo not shown); tested on = Arabidopsis thaliana; test = apo-pHusion imaging; test system = elongating root cells; conditions = 10 µM; measurement = apoplastic pH change; value = > 1 pH units
Compound = O=c1ccc2nc3ccc(OCC4CCCOC4)cc3oc-2c1 (stereo not shown); tested on = Mycobacterium tuberculosis; test system = mc2 6206 bedaquiline-resistant MmpL5 regulator mutant; conditions = 7 days; measurement = MIC90; value = 42 µM (≈ 13.1 µg/mL)
Compound = CCN1CCN(Cc2ccc(NC(=O)c3ccc(C)c(/C=C/c4cnc5[nH]ccc5c4OC)c3)cc2C(F)(F)F)CC1; tested on = TPM3-PDGFRB fusion; test = kinase-CDC37 interaction, cell-based kinome screen; conditions = 5 µM; how to read = reference: vehicle; measurement = log2 fold change; value = -0.207
Compound = CC[C@](O)([C@H]1C[C@@]23C=C[C@]1(OC)[C@@H]1Oc4c(O)ccc5c4[C@@]12CCN(CC1CC1)[C@@H]3C5)C(C)(C)C; tested on = Delta-type opioid receptor (OPRD1, Homo sapiens, UniProt P41143); test = binding, radioligand displacement; test system = CHO; conditions = added: [3H]DPDPE; measurement = Ki; value = 0.0012 ± 0.00016 µM
Compound = CC#C/C(=N\OC[C@H]1COCCN1)c1ccc2ncnc(Nc3ccc(OCc4cccc(F)c4)c(Cl)c3)c2c1; test = tumour growth; test system = A-431, mouse subcutaneous xenograft; conditions = oral, 11 days daily; measurement = ED50; value = < 25 mg/kg
Compound = C[C@H]1COc2c(N3CCN(C)CC3)c(F)cc3c(=O)c(C(=O)O)cn1c23; tested on = Staphylococcus aureus topoisomerase IV GrlA S81Y; measurement = maximal DNA cleavage; value = 23.5%
Compound = C(CCCCCN1COOC2(CCCCCC2)OOC2(CCCCCC2)OOC1)CCCCN1COOC2(CCCCCC2)OOC2(CCCCCC2)OOC1; tested on = HEK293; test = cytotoxicity, 7-AAD flow cytometry; measurement = IC50; value = 5.42 ± 0.37 µM
Compound = CC[C@H](C)[C@@H]1NC(=O)[C@H](CCC(=O)O)NC(=O)[C@@H]2CCCN2C(=O)[C@H](Cc2c[nH]cn2)NC(=O)[C@H](CC(=O)O)NC(=O)[C@H](Cc2ccc(O)cc2)NC(=O)[C@H](CC(N)=O)NC(=O)[C@@H]2CSSC[C@@H]3NC(=O)CNC(=O)CNC(=O)CNC(=O)[C@H](C)NC(=O)[C@H](C)NC(=O)CNC(=O)CNC(=O)[C@H](CSSC[C@H](NC3=O)C(=O)N[C@@H](CO)C(=O)N[C@@H](CC(=O)O)C(=O)N3CCC[C@H]3C(=O)N[C@@H](CCCNC(=N)N)C(=O)N2)NC1=O; tested on = Cav2.3c human; test = Ba2+ current; conditions = 200 nM; measurement = inhibition; value = 28 ± 4%
Compound = C[C@H](Cc1ccc(O)c(O)c1)[C@@H](C)Cc1ccc(O)c(O)c1; test system = human skin; conditions = 3% solution, 8 h, skin UV-treated 10 min; measurement = total amount permeated; value = 30.4 ± 2.47 µg
Compound = CCCN1CCN(c2ccc3c(c2)C2CC3CCN2C(=O)OCc2ccccc2)CC1 (stereo not shown); tested on = Sodium-dependent dopamine transporter (SLC6A3, Homo sapiens, UniProt Q01959); test = binding, radioligand binding; measurement = Ki; value = 2.08 µM
Compound = C[C@H]1CCCN1Cc1cc2cnc(NC(=O)c3ccc4c(cnn4C)c3)cc2[nH]1; test system = MV4;11 cells, NSG mouse, disseminated xenograft; conditions = oral, 200 mg/kg once daily, 28 days; how to read = reference: control; measurement = median survival increase; value = 70%
Compound = CCOc1ccc2cc(-c3nn(CC4CCN(C)CC4)c4ncnc(N)c34)ccc2n1; conditions = concentration not given, dog; measurement = half-life; value = > 2 h
Compound = O=c1ccc2nc3ccc(OCC(O)C(F)(F)F)cc3oc-2c1 (stereo not shown); tested on = Mycobacterium tuberculosis; test system = mc2 6206 bedaquiline-resistant MmpL5 regulator mutant; conditions = 7 days; measurement = MIC90; value = 14 µM (≈ 4.55 µg/mL)
Compound = O=C(Nc1ccccc1)c1cc([N+](=O)[O-])ccc1Cl; tested on = Salmonella typhimurium; test = Ames plate incorporation; test system = TA100; conditions = 150 µg/plate, without metabolic activation; measurement = revertants; value = 1560 ± 50 revertants/plate
Compound = CSc1nc(Cl)cc(Sc2nnc(-c3cc(C(F)(F)F)cc(C(F)(F)F)c3)[nH]2)n1; tested on = Klebsiella pneumoniae; test system = BARB 105; conditions = added: polymyxin B nonapeptide 25 µg/mL; measurement = MIC; value = 47.1 µg/mL (≈ 99.8 µM)
Compound = CC1CCC2(CC1)OOCN(CCCCCCCCCCN1COOC3(CCC(C)CC3)OOC3(CCC(C)CC3)OOC1)COOC1(CCC(C)CC1)OO2 (stereo not shown); tested on = HEK293; test = cytotoxicity, 7-AAD flow cytometry; measurement = IC50; value = 12.2 ± 0.48 µM
Compound = COc1ccc(OC[C@H]2c3cccn3CC(=O)N2Cc2cccc(F)c2)cc1; tested on = Glutamate receptor ionotropic, NMDA 2C, with GluN1 (Rattus norvegicus, UniProt Q00961); test = ion current, whole-cell patch clamp; test system = HEK293T cells, transfected; conditions = 10 µM, holding -70 mV, added: 1 mM glutamate for 10 ms plus 100 µM glycine; measurement = peak current; value = -181 ± 126 pA
Compound = C=C[C@@H]1[C@H]2CCC[C@]1(c1cccc(O)c1)CCN2CCc1ccccc1; test system = mouse cytosol 2 mg/mL; conditions = 1 µM, pH 7.4; measurement = half-life; value = 1.9 h
Compound = O=c1ccc2nc3ccc(OCC4CCOCC4)cc3oc-2c1; tested on = Mycobacterium tuberculosis; test system = mc2 6206 bedaquiline-resistant MmpL5 regulator mutant; conditions = 7 days; measurement = MIC90; value = 243 µM (≈ 75.7 µg/mL)
Compound = CCCCCCC1c2ccc(O)cc2Oc2cc(O)ccc21; tested on = Escherichia coli; test system = MC4100; conditions = added: PMBN 25 µg/mL; measurement = MIC; value = 0.9 µg/mL (≈ 3.02 µM)
Compound = CCN(CC)C(=O)Oc1ccc(C(=O)Nc2cccc3cc[nH]c23)cc1; tested on = rat NMDA receptor GluN2C/GluN2D vs GluN2A/GluN2B; test = ion current, two-electrode voltage clamp; test system = Xenopus oocytes; how to read = reference: GluN2A/GluN2B over GluN2C/GluN2D potency; measurement = selectivity ratio; value = > 800 fold

Some of these lines once more:
Compound = CCc1nc(N)nc(N)c1C#CCc1cc(OC)cc(-c2ccc(C(=O)O)cc2)c1; tested on = Staphylococcus aureus; test system = MSSA isolate UCH 1; measurement = MIC; value = 10 µg/mL (≈ 24.8 µM)
Compound = Cc1ccc(S(=O)(=O)N(C)CC(=O)N(Cc2ccc(C3CCCCC3)cc2)c2ccc(C(=O)O)c(O)c2)cc1; tested on = NIH3T3/v-Src, PANC-1, MDA-MB-231; test = immunoblotting, measured: phospho-Erk1/2; conditions = concentration not given, 24 h; measurement = phosphorylation level; value = no effect
Compound = O=c1ccc2nc3ccc(OCCO)cc3oc-2c1; tested on = Mycobacterium tuberculosis; test system = mc2 6206 clofazimine-resistant fbiC mutant; conditions = 7 days; measurement = MIC90; value = > 256 µM
